Measured values collected from several papers.
Lines come from different studies, so protocols differ. Values joined by “and” are separate records of one study, mostly repeats; a detail may differ. ± gives the spread as reported.
Chymotrypsinogen A: Chymotrypsinogen A (Bos taurus, UniProt P00766)
ache: Acetylcholinesterase (ache, Electrophorus electricus, UniProt O42275)
Chain of UniProt Q9UM07 (whole entry, looked up): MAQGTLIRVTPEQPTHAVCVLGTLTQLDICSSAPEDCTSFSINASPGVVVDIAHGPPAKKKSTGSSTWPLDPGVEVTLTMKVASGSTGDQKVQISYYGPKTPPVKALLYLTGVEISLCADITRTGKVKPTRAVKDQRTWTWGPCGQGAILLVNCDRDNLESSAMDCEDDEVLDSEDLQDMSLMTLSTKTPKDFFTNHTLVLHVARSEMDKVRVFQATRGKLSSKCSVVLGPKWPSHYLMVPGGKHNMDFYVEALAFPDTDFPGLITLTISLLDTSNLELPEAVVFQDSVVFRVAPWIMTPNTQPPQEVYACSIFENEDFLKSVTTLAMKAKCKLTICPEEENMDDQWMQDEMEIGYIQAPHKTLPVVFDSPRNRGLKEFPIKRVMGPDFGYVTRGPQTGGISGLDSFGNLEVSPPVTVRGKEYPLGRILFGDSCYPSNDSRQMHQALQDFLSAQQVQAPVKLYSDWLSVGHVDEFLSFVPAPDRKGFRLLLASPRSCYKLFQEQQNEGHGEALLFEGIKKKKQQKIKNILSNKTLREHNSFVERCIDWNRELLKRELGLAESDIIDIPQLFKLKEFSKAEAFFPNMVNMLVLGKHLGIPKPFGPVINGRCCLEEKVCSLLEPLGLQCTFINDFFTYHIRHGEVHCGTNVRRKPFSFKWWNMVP
Chain of UniProt Q9UH17 (whole entry, looked up): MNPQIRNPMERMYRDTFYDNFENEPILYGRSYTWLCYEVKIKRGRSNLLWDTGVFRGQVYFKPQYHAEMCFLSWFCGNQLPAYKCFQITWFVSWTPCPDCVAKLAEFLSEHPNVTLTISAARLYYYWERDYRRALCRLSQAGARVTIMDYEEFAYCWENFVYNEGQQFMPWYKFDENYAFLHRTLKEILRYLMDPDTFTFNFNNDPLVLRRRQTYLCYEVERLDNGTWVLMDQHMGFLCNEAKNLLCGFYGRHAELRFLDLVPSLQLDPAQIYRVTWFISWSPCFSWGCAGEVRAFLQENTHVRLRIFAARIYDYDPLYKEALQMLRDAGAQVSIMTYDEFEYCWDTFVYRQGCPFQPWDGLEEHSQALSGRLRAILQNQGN
Chain of UniProt O42275 (whole entry, looked up): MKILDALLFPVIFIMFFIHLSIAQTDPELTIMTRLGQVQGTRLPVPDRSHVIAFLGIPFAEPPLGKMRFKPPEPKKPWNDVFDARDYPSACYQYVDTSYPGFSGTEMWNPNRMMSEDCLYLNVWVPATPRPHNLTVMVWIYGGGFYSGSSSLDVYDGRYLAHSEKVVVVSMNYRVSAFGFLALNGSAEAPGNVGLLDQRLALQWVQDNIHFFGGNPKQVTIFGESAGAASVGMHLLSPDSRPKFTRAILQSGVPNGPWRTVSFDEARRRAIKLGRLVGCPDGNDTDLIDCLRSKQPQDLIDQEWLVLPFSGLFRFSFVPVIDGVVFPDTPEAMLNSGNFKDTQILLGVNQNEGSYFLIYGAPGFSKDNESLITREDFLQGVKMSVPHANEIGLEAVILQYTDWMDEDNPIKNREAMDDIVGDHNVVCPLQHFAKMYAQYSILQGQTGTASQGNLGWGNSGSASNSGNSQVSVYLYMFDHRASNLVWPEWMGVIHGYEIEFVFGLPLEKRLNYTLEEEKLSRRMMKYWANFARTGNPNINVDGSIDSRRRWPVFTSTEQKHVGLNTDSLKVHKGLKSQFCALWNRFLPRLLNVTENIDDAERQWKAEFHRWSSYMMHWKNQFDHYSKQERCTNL
Chain of UniProt Q15139 (whole entry, looked up): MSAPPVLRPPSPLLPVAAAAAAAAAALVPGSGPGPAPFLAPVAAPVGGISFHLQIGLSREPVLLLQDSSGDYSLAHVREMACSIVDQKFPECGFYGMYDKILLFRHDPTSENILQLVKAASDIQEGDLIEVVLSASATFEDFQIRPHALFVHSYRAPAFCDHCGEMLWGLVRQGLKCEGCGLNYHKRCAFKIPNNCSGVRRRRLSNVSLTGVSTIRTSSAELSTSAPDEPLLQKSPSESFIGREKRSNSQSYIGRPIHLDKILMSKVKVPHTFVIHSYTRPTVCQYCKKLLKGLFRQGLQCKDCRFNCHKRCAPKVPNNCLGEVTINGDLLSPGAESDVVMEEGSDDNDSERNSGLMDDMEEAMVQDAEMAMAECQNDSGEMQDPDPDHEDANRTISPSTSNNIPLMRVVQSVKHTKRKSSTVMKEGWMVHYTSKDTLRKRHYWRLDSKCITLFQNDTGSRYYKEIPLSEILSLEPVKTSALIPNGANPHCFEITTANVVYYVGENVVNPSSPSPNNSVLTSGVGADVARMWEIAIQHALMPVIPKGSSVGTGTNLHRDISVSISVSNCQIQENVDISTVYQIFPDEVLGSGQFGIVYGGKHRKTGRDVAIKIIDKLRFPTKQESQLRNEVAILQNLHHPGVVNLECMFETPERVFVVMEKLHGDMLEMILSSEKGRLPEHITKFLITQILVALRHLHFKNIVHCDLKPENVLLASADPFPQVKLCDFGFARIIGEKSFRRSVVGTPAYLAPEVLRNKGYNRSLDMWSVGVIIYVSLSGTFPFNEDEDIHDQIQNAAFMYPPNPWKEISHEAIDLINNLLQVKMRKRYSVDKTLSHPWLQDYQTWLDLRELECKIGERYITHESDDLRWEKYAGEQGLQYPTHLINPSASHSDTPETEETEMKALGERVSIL
Chain of UniProt Q3TRM4 (whole entry, looked up): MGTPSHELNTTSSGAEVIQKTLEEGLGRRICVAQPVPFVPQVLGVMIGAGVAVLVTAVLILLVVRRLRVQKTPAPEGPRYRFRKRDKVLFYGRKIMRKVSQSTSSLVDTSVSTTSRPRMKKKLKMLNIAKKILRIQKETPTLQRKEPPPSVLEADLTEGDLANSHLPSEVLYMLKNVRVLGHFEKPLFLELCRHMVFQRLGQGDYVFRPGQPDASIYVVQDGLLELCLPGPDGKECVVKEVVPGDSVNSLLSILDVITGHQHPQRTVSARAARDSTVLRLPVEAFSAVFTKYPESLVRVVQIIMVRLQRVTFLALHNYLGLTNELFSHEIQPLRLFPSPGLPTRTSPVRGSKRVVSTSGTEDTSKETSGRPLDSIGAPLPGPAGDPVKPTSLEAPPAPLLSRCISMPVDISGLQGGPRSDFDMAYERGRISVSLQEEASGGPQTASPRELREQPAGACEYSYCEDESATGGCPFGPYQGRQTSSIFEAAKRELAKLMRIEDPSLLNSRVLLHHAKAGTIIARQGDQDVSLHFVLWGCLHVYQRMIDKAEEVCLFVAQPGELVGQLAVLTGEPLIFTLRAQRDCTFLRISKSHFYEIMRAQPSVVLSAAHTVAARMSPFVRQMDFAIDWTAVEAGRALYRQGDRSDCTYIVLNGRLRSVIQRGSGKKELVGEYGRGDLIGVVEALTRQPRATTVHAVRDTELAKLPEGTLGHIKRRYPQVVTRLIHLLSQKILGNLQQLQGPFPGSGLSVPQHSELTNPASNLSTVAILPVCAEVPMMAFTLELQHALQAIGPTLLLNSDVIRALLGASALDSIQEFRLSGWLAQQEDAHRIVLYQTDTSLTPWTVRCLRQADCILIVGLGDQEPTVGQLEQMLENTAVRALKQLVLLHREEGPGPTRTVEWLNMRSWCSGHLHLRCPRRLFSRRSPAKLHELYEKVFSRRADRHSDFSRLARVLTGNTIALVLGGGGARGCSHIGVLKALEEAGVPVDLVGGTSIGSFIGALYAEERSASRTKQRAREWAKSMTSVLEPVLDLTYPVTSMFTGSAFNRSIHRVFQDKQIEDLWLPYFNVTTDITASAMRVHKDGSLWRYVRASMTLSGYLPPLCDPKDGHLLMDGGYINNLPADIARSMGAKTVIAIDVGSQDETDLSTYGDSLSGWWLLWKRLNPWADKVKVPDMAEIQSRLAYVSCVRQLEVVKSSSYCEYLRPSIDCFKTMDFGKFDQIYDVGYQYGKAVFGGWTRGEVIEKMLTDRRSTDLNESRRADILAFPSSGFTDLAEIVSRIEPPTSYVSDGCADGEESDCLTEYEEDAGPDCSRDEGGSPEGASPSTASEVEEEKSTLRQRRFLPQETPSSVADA
Chain of UniProt P35372 (whole entry, looked up): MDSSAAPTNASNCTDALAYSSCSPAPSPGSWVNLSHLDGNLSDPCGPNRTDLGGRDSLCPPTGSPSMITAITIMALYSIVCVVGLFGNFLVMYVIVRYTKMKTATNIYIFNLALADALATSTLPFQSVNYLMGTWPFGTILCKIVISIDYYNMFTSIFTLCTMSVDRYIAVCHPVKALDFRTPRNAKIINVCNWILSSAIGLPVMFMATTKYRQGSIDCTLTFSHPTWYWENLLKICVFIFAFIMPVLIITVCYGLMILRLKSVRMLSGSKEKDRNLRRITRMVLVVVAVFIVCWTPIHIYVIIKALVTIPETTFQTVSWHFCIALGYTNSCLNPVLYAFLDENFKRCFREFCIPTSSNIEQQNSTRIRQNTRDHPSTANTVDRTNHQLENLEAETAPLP
Chain of UniProt P41145 (whole entry, looked up): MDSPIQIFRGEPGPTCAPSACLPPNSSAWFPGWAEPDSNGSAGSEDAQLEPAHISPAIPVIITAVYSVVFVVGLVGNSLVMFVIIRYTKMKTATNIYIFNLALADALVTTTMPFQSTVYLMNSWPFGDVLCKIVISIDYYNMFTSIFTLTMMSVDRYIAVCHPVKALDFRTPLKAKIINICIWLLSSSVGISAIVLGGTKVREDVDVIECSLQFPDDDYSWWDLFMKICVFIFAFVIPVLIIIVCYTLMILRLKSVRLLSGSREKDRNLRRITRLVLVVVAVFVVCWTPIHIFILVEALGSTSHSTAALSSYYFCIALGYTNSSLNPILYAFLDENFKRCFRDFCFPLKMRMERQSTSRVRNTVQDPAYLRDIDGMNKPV
Chain of UniProt P20618 (whole entry, looked up): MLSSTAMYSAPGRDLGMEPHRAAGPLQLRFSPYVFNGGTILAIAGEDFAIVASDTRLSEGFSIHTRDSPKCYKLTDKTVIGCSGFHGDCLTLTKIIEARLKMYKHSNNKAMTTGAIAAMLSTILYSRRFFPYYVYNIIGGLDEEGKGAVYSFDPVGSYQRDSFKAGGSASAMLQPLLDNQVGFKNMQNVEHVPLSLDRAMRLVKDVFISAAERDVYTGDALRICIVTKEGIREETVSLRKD

With `COc1ccc(C(=O)CCl)cc1` the relative abundance was 36.3% (Fosb/Jund, ΔFosB bZIP domain (Mus musculus, UniProt P13346+P15066); intact mass LC-MS, measured: JUND adduct, HCl lost; concentration not given; reference: total JUND species).
For `CCCC[C@H](NC(C)=O)C(=O)N[C@H]1CCC(=O)NCCC[C@@H](C(=O)N[C@@H](C(=O)N2CCC[C@@H]2C(N)=O)C(C)C)NC(=O)[C@H](Cc2c[nH]c3ccccc23)NC(=O)[C@H](CCCNC(=N)N)NC(=O)[C@@H](Cc2ccc(F)cc2)NC(=O)[C@H](Cc2c[nH]cn2)NC1=O`, the Emax was 96% (MC3R (Homo sapiens, UniProt P41968); cAMP, agonist; CHO-K1).
For `O=C(N1CCCCC1)n1ccnn1`, “SILAC activity ratio” read 1.1 ((Lyso)-N-acylphosphatidylethanolamine lipase (Abhd4, Mus musculus, UniProt Q8VD66); probe labelling, inhibitor, competitive ABPP-SILAC, measured: Abhd4; mouse T cells; concentration not given, 4 h, protein level; reference: treated over DMSO cells, lower = stronger inhibition).
The inhibition of `CS(C)(=O)=Nc1ccc(-c2ccc(-c3nc4cc(O[C@@H]5CO[C@H]6[C@@H]5OC[C@H]6O)[nH]c4cc3F)cc2)cc1` is reported as -16% (STK10 (Homo sapiens, UniProt O94804); enzyme activity, inhibitor; 10 µM).
`CCOC(=O)[C@](CC)(CCCSCCOCCOCCNC(=O)c1ccc(C(=O)[O-])c(C2=C3C=CC(=[N+](C)C)C=C3[Si](C)(C)c3cc(N(C)C)ccc32)c1)NC(=O)c1ccc(C2CC2)c(Cc2ccc(F)cc2)n1` has a Ki ratio of 2 (CNR2 (Homo sapiens, UniProt P34972); radioligand binding; reference: CB1 over CB2 (human)).
The inhibition of `C[C@H](NCc1ccc(-c2ccc(C(F)(F)F)cc2)cc1)C(N)=O` is reported as -7% (ABCC8 (Homo sapiens, UniProt Q09428); radioligand binding, SafetyScreen panel; 1 µM, together with: 5.0 nM [3H]Glyburide).
The selectivity ratio of `FC(F)(CNCc1cc(Cl)cc(Cl)c1)CNc1nc2ncccc2[nH]1` is reported as over 26.9 (MARS2 (Homo sapiens, UniProt Q96GW9); enzyme activity; reference: human IC50 over T. brucei IC50).
`Cc1ccccc1/N=N/c1cccc([B-](F)(F)F)c1.[K+]` has a switching factor of 6.4 ± 0.2 (Chymotrypsinogen A; enzyme activity, inhibitor; together with: Suc-AAPF-AMC; reference: Ki cis over Ki trans).
`CC(C)CC(O)(CC(C)C)c1cn(C(=O)N2CCCC2)nn1` — result for “activity-based probe labelling ratio”: 1.29 (Patatin-like phospholipase domain-containing protein 6 (Mus musculus, UniProt Q3TRM4); mouse, brain; concentration not given; reference: vehicle over compound).
The inhibition of `CC(C)[C@H]1NC(=O)C[C@H]2/C=C/CCSSC[C@@H](NC1=O)C(=O)N[C@H](Cc1cccc3ccccc13)C(=O)NCC(=O)O2` is reported as 0.189% (NUAK1 (Homo sapiens, UniProt O60285); enzyme activity, inhibitor; 10 µM).
`[CH3][Ti+2][O]C(=O)c1ccc([S][Au][PH](c2ccccc2)(c2ccccc2)c2ccccc2)cc1.c1cc[cH-]c1.c1cc[cH-]c1` gave a remaining activity of 81.5% (PRKD1 (Homo sapiens, UniProt Q15139); kinase activity; 1 µM, together with: ATP 10 µM).
`O=C(O)C(/C=C/c1ccc(Cl)cc1)=N\Nc1nc(-c2ccc(Cl)cc2)cs1` gave a selectivity index of 10.4 (ache; Ellman; reference: IC50 BChE over IC50 AChE).
For `O=C1NC(=O)c2c1c1cc(F)c[n+]3c1c1c2c2cc(O)ccc2[n]1[Ru-4]312([N]=C=S)[S+]3CC[S+]1CC[S+]2CC3` (stereo not drawn), the remaining activity was 74% (SGK3 (Homo sapiens, UniProt Q96BR1); enzyme activity; 100 nM, human enzyme, together with: 10 µM ATP; reference: untreated).
`CCOC(=O)[C@@H]1Cc2c(cc([N+](=O)[O-])cc2[N+](=O)[O-])[C@H](O)[C@]12C(=O)Nc1ccc(Br)cc12` gave a remaining binding of 100% (TGFBR1 (Homo sapiens, UniProt P36897); binding, competition with immobilised ligand; 0.1 µM).
`O=C(O)c1cc(O)c2c(c1)[C@H]([C@H]1c3cc(C(=O)O)cc(O)c3C(=O)c3c(O[C@@H]4O[C@H](CO)[C@@H](O)[C@H](O)[C@H]4O)cccc31)c1cccc(O[C@@H]3O[C@H](CO)[C@@H](O)[C@H](O)[C@H]3O)c1C2=O` has a remaining activity of 5.44% (PNLIP (Homo sapiens, UniProt P16233); enzyme activity, inhibitor, fluorescence; 50 µM).
`CN(C)[C@H]1C[C@@]23CC[C@@]4(O2)C(=CC[C@]2(C)[C@@H](c5ccc6ccncc6c5)CC[C@H]24)C=C3[C@@H](O)[C@@H]1O` gave an inhibition of -2.2% (ATR (Homo sapiens, UniProt Q13535); ATP probe labelling, inhibitor, KiNativ profiling; 0.1 µM).
`CN1CCC[C@@H]1C(=O)N[C@@H](Cc1ccc(-c2ccccc2)cc1)B(O)O` has an IC50 ratio of 4.8 (Proteasome component C5/PSMB5 (Homo sapiens, UniProt P20618+P28074); Ac-WLA-AMC cleavage; together with: PA28αβ; reference: Tris over HEPES buffer).
For `C[C@@H](Cc1ccsc1)NC(=O)NC[C@H](Cc1ccc(O)cc1)N(C)C`, the Emax was 73 ± 13% (Mu-type opioid receptor, with Gi2 (OPRM1, Homo sapiens, UniProt P35372); receptor activation, agonist).
With `N[C@H](C(=O)N1CCCC1)C1CCN(c2nccc3c(-c4ncc(Cl)cc4Cl)cccc23)CC1` the kcat was 0.0259 s⁻¹ and 0.0397 s⁻¹ (PADI4 (Homo sapiens, UniProt Q9UM07); enzyme activity; 3.84 µM, low-affinity site, together with: Ca2+ 0.25 mM).
For `Cc1ccc(N2CC3CCC(C2)N3C)cc1C(=O)N[C@H](C)c1cc(-c2cnn(C)c2)nc2ccccc12`, the remaining activity was 99.2% (USP7 (Homo sapiens, UniProt Q93009); enzyme activity; 10 µM).
`C=CC(=O)Nc1cc(-c2ccc(C(=O)N3CCCC(O)(CC)C3)cc2)ccc1F` (stereo not drawn) has an adducted protein of 78% and 73% (DNA dC->dU-editing enzyme APOBEC-3B, C-terminal domain (Homo sapiens, UniProt Q9UH17); covalent adduct, intact protein MS, measured: mass +397 Da adduct of 25735 Da; 500 µM, 3 h, 20-fold molar excess).
The -TΔS of `CC(=O)N[C@@H](CCC(N)=O)C(=O)N[C@@H](CC1CCCCC1)C(=O)N[C@@H](CNC(=O)CCl)C(=O)N[C@@H](CC(C)C)C(=O)N[C@@H](Cc1ccccc1)C(=O)O` is reported as 2.5 kcal/mol (Beta sliding clamp (Escherichia coli, UniProt P0A988); binding, isothermal titration calorimetry; 25 °C).
The remaining binding of `COc1ccccc1-c1n[nH]c2nc(N[C@H]3CC[C@H](NS(=O)(=O)CC(C)C)CC3)ncc12` is reported as 8% (cdc2-related kinase 12 (Leishmania donovani, UniProt A0A3S7WQK2); kinobead competition pull-down; Leishmania donovani, cell extract; 0.016 µM; reference: vehicle).
With `C#CCCCCOc1ccc2c(c1)CCCN2C(=O)CCl` the reactivity ratio was 0.639 (ATP6V1A (Homo sapiens, UniProt P38606); mass spectrometry profiling; H460 cell lysate; 100 µM over 10 µM, UniProt P38606; reference: high over low concentration).
Under activity, `CCCCN(C=O)c1c(CC)nc2ccc(C(=O)N(C)Cc3ccco3)cn12` is recorded as “active” (ache; inhibitor; 5 µM).
For `OB(O)c1cnn(-c2cccc(Cl)c2)c1`, the selectivity ratio was 8 (Chymotrypsinogen A; pNA substrate hydrolysis; reference: Ki protease over Ki AmpC).
With `CC(C)(O)C(=O)N1CCN(C(=O)Cc2ccc(Cl)c(Cl)c2)[C@H]2[C@H]1COC[C@@H]2N1CCCC1` (single isomer, unassigned) the Emax was 60% (OPRK1 (Homo sapiens, UniProt P41145); β-arrestin-2 recruitment, agonist; U2OS; 1.5 h; reference: U-69593 maximal response).

Repeated from above:
`CC(C)CC(O)(CC(C)C)c1cn(C(=O)N2CCCC2)nn1` — result for “activity-based probe labelling ratio”: 1.29 (Patatin-like phospholipase domain-containing protein 6 (Mus musculus, UniProt Q3TRM4); mouse, brain; concentration not given; reference: vehicle over compound).
`O=C(O)C(/C=C/c1ccc(Cl)cc1)=N\Nc1nc(-c2ccc(Cl)cc2)cs1` gave a selectivity index of 10.4 (ache; Ellman; reference: IC50 BChE over IC50 AChE).
`CCOC(=O)[C@](CC)(CCCSCCOCCOCCNC(=O)c1ccc(C(=O)[O-])c(C2=C3C=CC(=[N+](C)C)C=C3[Si](C)(C)c3cc(N(C)C)ccc32)c1)NC(=O)c1ccc(C2CC2)c(Cc2ccc(F)cc2)n1` has a Ki ratio of 2 (CNR2 (Homo sapiens, UniProt P34972); radioligand binding; reference: CB1 over CB2 (human)).
`O=C(O)c1cc(O)c2c(c1)[C@H]([C@H]1c3cc(C(=O)O)cc(O)c3C(=O)c3c(O[C@@H]4O[C@H](CO)[C@@H](O)[C@H](O)[C@H]4O)cccc31)c1cccc(O[C@@H]3O[C@H](CO)[C@@H](O)[C@H](O)[C@H]3O)c1C2=O` has a remaining activity of 5.44% (PNLIP (Homo sapiens, UniProt P16233); enzyme activity, inhibitor, fluorescence; 50 µM).
